Published values collected from several papers.
“And” joins repeats or separate records; there may be more than shown. ± marks the error that the study gave.
cyp121: Mycocyclosin synthase (cyp121, Mycobacterium tuberculosis, UniProt P9WPP7)

The chains behind the UniProt entries cited, without tags or fusion partners.
UniProt P9WPP7, whole entry: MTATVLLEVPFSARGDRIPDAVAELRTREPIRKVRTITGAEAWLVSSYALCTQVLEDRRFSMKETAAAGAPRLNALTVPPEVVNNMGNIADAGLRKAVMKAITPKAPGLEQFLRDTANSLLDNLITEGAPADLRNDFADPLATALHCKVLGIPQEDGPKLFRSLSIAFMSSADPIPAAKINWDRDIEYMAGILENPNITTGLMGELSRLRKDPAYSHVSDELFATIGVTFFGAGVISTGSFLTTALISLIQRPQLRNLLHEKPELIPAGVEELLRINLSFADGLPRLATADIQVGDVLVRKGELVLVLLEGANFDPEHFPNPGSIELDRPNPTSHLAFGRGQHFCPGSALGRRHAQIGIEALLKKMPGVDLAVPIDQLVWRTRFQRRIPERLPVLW

c1cn(Cc2ccc(-c3ccc4[nH]ccc4c3)cc2)cn1  Kd (cyp121; binding): 2.4 ± 0.19 µM
Cc1ccccc1S(=O)(=O)Nc1cccc(C(=O)NC2CCN(c3ncnc4[nH]cnc34)CC2)c1  viability (A549-ACE2; 2.469 µM): 104%
COCn1cc(-c2cc([C@@H](C)NC(=O)c3cc(OCCN(C)C)ccc3C)c3ccccc3n2)cn1  viability (Vero E6 cells; 250 µM): 11.1% and 7.58%
COc1ccc2c3c([nH]c2c1)[C@H](CC(C)C)N1C(=O)[C@H](CC(=O)OCc2ccccc2)NC(=O)[C@@H]1C3  CC50 (A549; MTT; 72 h): 49.6 ± 2.8 µM
Cc1ccc(OCCN(C)C)cc1C(=O)N[C@H](C)c1cc(-c2ccn(C)n2)nc2ccccc12  viability (Vero E6 cells; 15.62 µM): 104% and 101%
NC[C@@H](NC[C@@H]1CCCN1C[C@@H](CO)NC[C@@H](NCCc1ccc(Cl)c(Cl)c1)c1ccccc1)c1ccccc1  IC50 (Acinetobacter baumannii; bacterial growth; compound alone): 12 µM and 11.8 µM
COc1ccc2c(c1)sc1nc(-c3ccc4c(c3)CN(C3CCC(=O)NC3=O)C4=O)c(NCc3ccccc3)n12 (stereo not shown)  EC50 (MOLT-4; cell viability, CellTiter-Glo; 72 h): 139 nM
O=C(NC1CCN(c2ncnc3[nH]cnc23)CC1)c1cccc(NS(=O)(=O)c2ccc(Cl)cc2)c1  viability (A549-ACE2; 22.22 µM): 91.5%
O=C(O)C(O)=CC(=O)c1ccc(O)c(O)c1  CC50 (VeroE6-TMPRSS2): > 50 µM
Cc1ccc(S(=O)(=O)Nc2cccc(C(=O)NC3CCN(c4ncnc5[nH]cnc45)CC3)c2)cc1Cl  viability (A549-ACE2; 66.67 µM): 86.2%
COc1cccc(-c2cc(NC(=O)Nc3ccc(C(F)(F)F)cc3)ccc2OC)c1  efflux ratio (Caco-2): 0.092 ± 0.03
Cc1cc(SCc2sc(-c3ccc(C(F)(F)F)c(F)c3)nc2C)ccc1OCc1nn[nH]n1  CC50 (HEK293T; 18 h): > 33 µM
C[C@H](CS)C(=O)N[C@H](Cc1c[nH]c2ccccc12)C(=O)O  MIC of meropenem (Enterobacter aerogenes; IMP-1 producing; 10 µM, added: meropenem): 16 mg/L
O=C(NC1CCN(c2ncnc3[nH]cnc23)CC1)c1cccc(NS(=O)(=O)c2ccc([N+](=O)[O-])cc2)c1  viability (A549-ACE2; 0.01016 µM): 100%
COc1ccc(-c2csc(Cn3ccnc3)c2)cc1  Kd (cyp121; binding): 16 ± 3.9 µM
CN1c2ccc(OC(=O)Nc3cccnc3)cc2C2(C)CCOC12 (single isomer, unassigned)  cell survival (tau biosensor donor cells; concentration not given, 48 h; reference: DMSO): no effect
O=C(O)C(O)=CC(=O)C1(Cc2ccc(Cl)cc2)CCN(Cc2ccc3ccccc3c2)CC1  CC50 (VeroE6-TMPRSS2): > 50 µM
O=C[C@@H]1CCC(=O)NCCCn2cc(nn2)C[C@H](NC(=O)OCc2ccccc2)C(=O)N[C@@H](CC2CCCCC2)C(=O)N1  CC50 (HG23; crystal violet staining; 1 to 100 µM, 48 h): > 100 µM
CC(C)(C)c1ccc(-c2cn(-c3ccc(C(=O)C=C(O)C(=O)O)cc3)nn2)cc1  CC50 (VeroE6-TMPRSS2): > 50 µM
COc1cc2c(N(C)C)nc(NCCCN(C)C)nc2cc1OCCCCCN  CC50 (human primary fibroblasts; cytotoxicity, CCK-8; 24 h): 52.1 µM
CCCCCCCCCC(=O)c1cc[nH]c1  maximum tolerated concentration (murine 3T3 fibroblasts; optical microscopy): ≤ 23 µM
C[C@]12CCC3=C(C(=O)c4occ5c4[C@]3(C)[C@H]3O[C@H]3C5=O)[C@@H]1CCC2=O  EC50 (MDA-MB-231; cytotoxicity, SRB; 72 h): 9 nM
O=C(O)C(O)=CC(=O)c1ccc2cc(O)c(O)cc2c1  CC50 (VeroE6-TMPRSS2): > 50 µM
COc1ccc(S(=O)(=O)Nc2cccc(C(=O)NC3CCN(c4ncnc5[nH]cnc45)CC3)c2)cc1  viability (A549-ACE2; 0.09145 µM): 106%
O=C(NCc1ccc(F)cc1)C1C(=O)N(O)C(=O)c2cc([N+](=O)[O-])ccc21 (stereo not shown)  CC50 (VeroE6-TMPRSS2): > 50 µM
O=C(Nc1ccccc1OS(=O)(=O)c1ccc(OC(F)(F)F)cc1)c1cnccn1  viability (MCF7; MTT; 100 µM, 24 h; reference: untreated): 84.2 ± 2.66%
CS(=O)(=O)C=CCNC(=O)c1ccc2[nH]c(=O)n(C3CC3)c2c1  IC50 (MRC-5; cytotoxicity): > 10 µM
O=C(NCc1ccccc1)C1C(=O)N(O)C(=O)c2cc([N+](=O)[O-])ccc21 (stereo not shown)  CC50 (VeroE6-TMPRSS2): > 50 µM

Repeated from above:
NC[C@@H](NC[C@@H]1CCCN1C[C@@H](CO)NC[C@@H](NCCc1ccc(Cl)c(Cl)c1)c1ccccc1)c1ccccc1  IC50 (Acinetobacter baumannii; bacterial growth; compound alone): 12 µM and 11.8 µM
Cc1ccc(S(=O)(=O)Nc2cccc(C(=O)NC3CCN(c4ncnc5[nH]cnc45)CC3)c2)cc1Cl  viability (A549-ACE2; 66.67 µM): 86.2%
COc1ccc(-c2csc(Cn3ccnc3)c2)cc1  Kd (cyp121; binding): 16 ± 3.9 µM
COCn1cc(-c2cc([C@@H](C)NC(=O)c3cc(OCCN(C)C)ccc3C)c3ccccc3n2)cn1  viability (Vero E6 cells; 250 µM): 11.1% and 7.58%
